Published values of several laboratories.
Every numbered part comes from another study and shows a few of its results, in no order.

Series 1
Target: Interferon regulatory factor 7, full length, phosphomimetic (IRF7, Homo sapiens, UniProt Q92985, residues 1-503, S471D/S472D/S475D/S476D/S477D/S483D/S484D/S487D)
Technique: protein-binding microarray
Form: double-stranded DNA, one strand shown
Sample: in vitro
Concentration: 2200 nM top
Setting: 60-bp whole probe
Added: salmon DNA 0.4 mg/ml
Reference: random background probes
Direction: higher = stronger binding
Shared flanks, not repeated: GCCTAGCAC … GTCTTGATTCGCTTGACGCTGCTG
Target sequence (chain): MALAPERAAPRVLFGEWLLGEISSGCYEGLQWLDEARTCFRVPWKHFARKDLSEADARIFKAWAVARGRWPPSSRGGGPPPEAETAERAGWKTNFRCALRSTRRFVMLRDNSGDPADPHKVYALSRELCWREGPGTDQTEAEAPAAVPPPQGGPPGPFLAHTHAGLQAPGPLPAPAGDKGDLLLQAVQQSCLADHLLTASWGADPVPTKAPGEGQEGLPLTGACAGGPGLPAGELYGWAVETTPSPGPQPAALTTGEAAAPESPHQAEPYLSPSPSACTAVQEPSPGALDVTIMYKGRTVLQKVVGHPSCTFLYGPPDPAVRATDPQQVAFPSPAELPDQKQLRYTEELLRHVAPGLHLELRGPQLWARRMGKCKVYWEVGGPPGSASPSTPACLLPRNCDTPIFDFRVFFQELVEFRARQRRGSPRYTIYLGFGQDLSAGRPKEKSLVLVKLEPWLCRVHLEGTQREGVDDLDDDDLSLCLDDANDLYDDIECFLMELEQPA
Strand | fitted relative affinity [z-score]
TTAGGGATCGGTATCGGTTAGTGCTAG | -0.0173
CTCTGGGGGGTGGGATGAAGGTGCTAG | 1.16
TTAGGCCTGGACTTTCGGTTAGTGCTA | 4.61
TTAGTTCTCAGTTTCGATTAGTGCTAG | 6.38
GACGGTCTCCTTATCCTGACGTGCTAG | 1.06
TTAGGTCTCGGTCTCGGTTAGTGCTAG | 0.809
TTAGGTTTCGGGTTTCGTTTAGTGCTA | 10.3
GACCATCTCAGACTGGAGACGTGCTAG | 0.0573
GACGGTTTCATTATCCTGACGTGCTAG | 3.61
GCCGGACTGCTTCTCCTGACGTGCTAG | 0.236
GAAAATTAGTGTTTTGCCCTGTGCTAG | 1.16
TTAGATATAGGGTTTCGATTAGTGCTA | 1.83
TTTGGTTTCGGGACTGGGTTAGTGCTA | 5.11
TTTGGTATCGACTATCGGTTAGTGCTA | 1.15
TTAGGACTGATTTTCCTTTAGTGCTAG | 1.16
CCATCGATTTCTCTTTCCCAAGTGCTA | 3.47
TTAGGGATCCTTCTCCTTTAGTGCTAG | 0.215
GAGTGTTTCTTCTGCTGACAGTGCTAG | 1.14
TTAGAACTGGGGGCTGGATTAGTGCTA | 0.479

Series 2
Target: RNA binding protein fox-1 homolog 2, RRM domain, GST-SBP tag (RBFOX2, Homo sapiens, UniProt O43251-10, residues 100-194)
Technique: RNA Bind-n-Seq
Form: RNA
Sample: in vitro
Concentration: 365 nM
Setting: natural RNA segment, single round, ends assumed
Reference: no-protein control
Direction: higher = stronger binding
Strand | RBNS enrichment (R)
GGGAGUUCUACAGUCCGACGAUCACCUACUCCCCUAGGUCACAACUCUGGGAAGGAUACAGAGCCCCCACCCUUCACUGAGUUCUCUGGAUUUGUUCUCAGUGCCUUAGCAACGAAAACCUGUGCUUGUGUGUUGGAAUUCUCGGGUGCCAA | 0.764
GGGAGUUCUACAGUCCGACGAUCGGACACGUGUUGUACAUAAGCCUCUGCAGUGUCCUCUUGUUAAUGGUGGGGUUUUCUGCUUUGUUUUUAUUUAAGAAAAUAAACACGACAUAUUUAAAGAAGGUUCUUUCUGGAAUUCUCGGGUGCCAA | 0.748
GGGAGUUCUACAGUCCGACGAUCAGUCCUCCCAAAACUUCCUACCCACACCCUCUUCCCAAGGCCCUCAGGGGCAGAAAACAUCUCCUUCAACCCGUCCCCACUCCUUCCUCUGCAUGACCUUGGGCAAACCCUGGAAUUCUCGGGUGCCAA | 5.03
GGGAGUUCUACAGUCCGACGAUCGUAGUAGAGUUUAAUUCACCAUAUGAACCUCAUUCUGAUGUUUUUGAUUUGAUAGUCUUGAUCUAAAAAUAAUGUUUUGUUAAUAUGUCACUAAAUUUCUAAAAACUGUAUGGAAUUCUCGGGUGCCAA | 0.926
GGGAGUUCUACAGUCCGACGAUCAGUGGGAAAUACAUUGUGCCUUUCUCUAGAUGUGAUACGUUAUACCAAAAUCUUUGUAGUGUGCAGAGCGGUGGUUUGAGACUAAAUACAGGCUUAGAACUUGCAGAGUGUGGAAUUCUCGGGUGCCAA | 0.444
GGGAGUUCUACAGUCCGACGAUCACCAGCCAGGUCUUAUGUUCCCAGGCCCUGUCUUCUGGAAAGCAUUACUGGGAAGUGGACACUAGGAAUUGCAGCCACUGGGCAGUUGGGGUGGCUUCCUGGGAGAUGAGUGGAAUUCUCGGGUGCCAA | 1.07
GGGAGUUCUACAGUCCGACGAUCUAAUGCUUAGUGACUGUAUGAUAUUACUCAGAGUUCUGUUAGACUUUUUUUCUGCCUCGGUUCUUAUCGGCUAGGUUUGAGGUAUUUCACUGAGAACGUGAACUCGGUCUUGGAAUUCUCGGGUGCCAA | 0.495
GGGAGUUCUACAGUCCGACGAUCUGGGAUAUAGGAAAAGCAGUGGGCAGAGGCCUGACUGACCUGAUAUUCAAUCUGCACAAAGUCCAAGGUAUGCUAGGUUCACCAAAGUAGAUUUGCUGGACCUGAUCCCCUGGAAUUCUCGGGUGCCAA | 0.405

Series 3
Target: Ras GTPase-activating protein-binding protein 1, full length (G3BP1, Homo sapiens, UniProt Q13283)
UniProt Q13283, sequence (whole entry, looked up): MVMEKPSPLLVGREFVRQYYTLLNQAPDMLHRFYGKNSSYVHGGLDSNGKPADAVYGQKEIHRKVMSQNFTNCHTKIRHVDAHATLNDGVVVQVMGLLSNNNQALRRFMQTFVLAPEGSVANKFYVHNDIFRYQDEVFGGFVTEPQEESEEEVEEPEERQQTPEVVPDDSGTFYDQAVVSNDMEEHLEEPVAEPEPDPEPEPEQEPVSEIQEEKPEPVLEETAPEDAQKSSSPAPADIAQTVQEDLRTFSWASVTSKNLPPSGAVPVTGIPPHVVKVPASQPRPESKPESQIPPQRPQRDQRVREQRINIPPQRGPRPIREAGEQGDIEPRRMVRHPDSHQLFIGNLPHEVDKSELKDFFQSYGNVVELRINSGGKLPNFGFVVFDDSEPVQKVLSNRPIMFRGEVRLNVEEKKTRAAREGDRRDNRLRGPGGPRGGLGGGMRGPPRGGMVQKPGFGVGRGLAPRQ
Technique: RNA Bind-n-Seq
Form: RNA
Sample: in vitro
Concentration: 200 nM
Setting: whole 134-nt RNA, ends assumed
Added: 150 mM LiCl
Reference: input library
Direction: higher = stronger binding
All molecules: 7-deaza-guanosine replaces G
Strand | log2 enrichment
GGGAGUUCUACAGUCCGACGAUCUCCAUGCAGGUGGGCAUCUUUGGGAAGUGGGGCAAGGGGGGGAUAGGGAGGGGGGUAACACUUUGGGAACAGGUGGUCCCAGGUCGUUUCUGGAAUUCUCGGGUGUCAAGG | 0.356
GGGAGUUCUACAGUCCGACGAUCAAGUCCUGUGCUACACAUCGUAUGUACCGAAUCGGGGUUUUGGGUUUUGGGUUUUGGAAAGUAUUAUGUUACGCCGUUCGGAUCUGCACUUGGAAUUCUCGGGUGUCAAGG | 0.151
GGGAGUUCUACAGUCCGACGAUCACCAUGCAGGUGGGCAUCGUUGGGAAGUGGGGCAAGGGGGGGAUAGGGAGGGGGGUAACACUUUGGGAACAGGUGGUCCCAGGUCGUUUCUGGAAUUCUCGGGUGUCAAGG | 0.862
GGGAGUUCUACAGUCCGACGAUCUCCAAACCCAAGAAAAAGAAAUCUUUUUCCAAGGAGGAGUUGAUGAGUAGCGAUCUUGAAGAGACCGCUGGCAGCACCAGUAUUCCCAAGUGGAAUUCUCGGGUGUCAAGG | -0.722
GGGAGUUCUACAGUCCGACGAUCCCUCAAGUCCUGUGCUACACAUCGUAUGUACCGAAUCGGUGGUUUUUGGAGGAAAGUAUUAUGUUACGCCGUUCGGAUCUGCACUUCCAGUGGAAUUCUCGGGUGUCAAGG | 0.636
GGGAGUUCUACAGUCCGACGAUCUAACUUUAGAGGAGGAUCUGAUGGAUAUGGCAGUGGACGUGGAUAUGGGGAUGGCUAUAAUGGGUAUGGAGGAGGACCUGGAGGUGGCAAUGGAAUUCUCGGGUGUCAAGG | -0.072
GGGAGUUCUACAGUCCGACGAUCCACAGACAACACGCACCCACAAAGACACAGAGGGAAGGGGUUGGGAUGGGGACAGGGUGCACAGCAGGGCGGGGUAGGACCCCAGCCCCUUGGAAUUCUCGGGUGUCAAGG | 0.106
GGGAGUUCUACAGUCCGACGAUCCCUCAAGUCCUGUGCUACACAUCGUAUGUACCGAAUCGGUUUUUGGAGGAGGAAAGUAUUAUGUUACGCCGUUCGGAUCUGCACUUCCAGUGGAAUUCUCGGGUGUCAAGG | -0.0376

Series 4
Target: Prothrombin, mature alpha-thrombin (F2, Homo sapiens, UniProt P00734)
Technique: aptamer microarray, sandwich
Form: DNA with 2'F-ANA
Sample: in vitro
Concentration: 200 nM
Setting: whole 15-mer aptamer, many near background
Added: Cy3 exosite-II aptamer, 400 nM
Direction: higher = stronger binding
Strand: GGTTGGTGTGGTTGG
Modification | mean fluorescence intensity [a.u.]
2'F-ANA at 4 5 6 8 9 12 13 | 91.1
2'F-ANA at 2 8 10 13 14 | 80.9
2'F-ANA at 6 7 11 12 15 | 530
2'F-ANA at 3 7 8 10 11 12 13 14 | 446
2'F-ANA at 1 5 6 9 10 13 15 | 66.6
2'F-ANA at 1 2 3 4 5 7 11 12 15 | 90.5
2'F-ANA at 2 3 6 7 8 10 14 15 | 266
2'F-ANA at 4 5 7 8 12 13 14 15 | 57
2'F-ANA at 4 7 9 15 | 320
2'F-ANA at 2 4 7 10 13 14 15 | 63.4
2'F-ANA at 1 2 3 8 10 12 13 14 | 50.3
2'F-ANA at 1 7 10 11 12 14 | 51.8
2'F-ANA at 1 3 6 7 8 9 10 11 14 | 61.5
2'F-ANA at 1 3 5 8 9 10 12 15 | 79
2'F-ANA at 2 5 8 14 | 65.1
2'F-ANA at 5 6 7 8 9 10 11 | 49.2
2'F-ANA at 1 2 3 4 6 10 12 14 15 | 51.8
2'F-ANA at 1 2 3 5 6 10 15 | 48.8
2'F-ANA at 2 4 6 7 10 12 15 | 131
2'F-ANA at 2 3 6 7 11 13 15 | 527
2'F-ANA at 1 4 5 6 8 | 58.8
2'F-ANA at 2 4 6 8 11 12 13 14 15 | 89.4
2'F-ANA at 1 2 3 4 5 7 8 11 12 14 | 49.3
2'F-ANA at 2 3 5 6 7 8 12 13 15 | 165
2'F-ANA at 1 2 4 6 7 9 10 12 13 | 50.6

Some of these lines once more (series 2):
Strand | RBNS enrichment (R)
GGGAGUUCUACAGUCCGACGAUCACCUACUCCCCUAGGUCACAACUCUGGGAAGGAUACAGAGCCCCCACCCUUCACUGAGUUCUCUGGAUUUGUUCUCAGUGCCUUAGCAACGAAAACCUGUGCUUGUGUGUUGGAAUUCUCGGGUGCCAA | 0.764
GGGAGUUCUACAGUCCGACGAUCGGACACGUGUUGUACAUAAGCCUCUGCAGUGUCCUCUUGUUAAUGGUGGGGUUUUCUGCUUUGUUUUUAUUUAAGAAAAUAAACACGACAUAUUUAAAGAAGGUUCUUUCUGGAAUUCUCGGGUGCCAA | 0.748
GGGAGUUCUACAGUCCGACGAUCAGUCCUCCCAAAACUUCCUACCCACACCCUCUUCCCAAGGCCCUCAGGGGCAGAAAACAUCUCCUUCAACCCGUCCCCACUCCUUCCUCUGCAUGACCUUGGGCAAACCCUGGAAUUCUCGGGUGCCAA | 5.03
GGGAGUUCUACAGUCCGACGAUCGUAGUAGAGUUUAAUUCACCAUAUGAACCUCAUUCUGAUGUUUUUGAUUUGAUAGUCUUGAUCUAAAAAUAAUGUUUUGUUAAUAUGUCACUAAAUUUCUAAAAACUGUAUGGAAUUCUCGGGUGCCAA | 0.926
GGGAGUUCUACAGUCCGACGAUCAGUGGGAAAUACAUUGUGCCUUUCUCUAGAUGUGAUACGUUAUACCAAAAUCUUUGUAGUGUGCAGAGCGGUGGUUUGAGACUAAAUACAGGCUUAGAACUUGCAGAGUGUGGAAUUCUCGGGUGCCAA | 0.444
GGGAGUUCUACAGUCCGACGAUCACCAGCCAGGUCUUAUGUUCCCAGGCCCUGUCUUCUGGAAAGCAUUACUGGGAAGUGGACACUAGGAAUUGCAGCCACUGGGCAGUUGGGGUGGCUUCCUGGGAGAUGAGUGGAAUUCUCGGGUGCCAA | 1.07
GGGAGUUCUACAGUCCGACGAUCUAAUGCUUAGUGACUGUAUGAUAUUACUCAGAGUUCUGUUAGACUUUUUUUCUGCCUCGGUUCUUAUCGGCUAGGUUUGAGGUAUUUCACUGAGAACGUGAACUCGGUCUUGGAAUUCUCGGGUGCCAA | 0.495
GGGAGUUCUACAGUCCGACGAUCUGGGAUAUAGGAAAAGCAGUGGGCAGAGGCCUGACUGACCUGAUAUUCAAUCUGCACAAAGUCCAAGGUAUGCUAGGUUCACCAAAGUAGAUUUGCUGGACCUGAUCCCCUGGAAUUCUCGGGUGCCAA | 0.405
